# Assay results from different studies.
# Parts stem from different laboratories: compare values within a part only.

# Study 1
# Target: Histone acetyltransferase KAT6A, winged helix 1, GST fusion (KAT6A, Homo sapiens, UniProt Q92794, residues 1-85)
# Technique: protein binding microarray
# Molecule type: double-stranded DNA, one strand shown
# Medium: in vitro
# Tested at: not given
# Setting: 8-mer, flanks averaged, mean of 2 arrays, mostly near background
# Baseline: not given
# Reading: higher = stronger binding
# Construct (chain): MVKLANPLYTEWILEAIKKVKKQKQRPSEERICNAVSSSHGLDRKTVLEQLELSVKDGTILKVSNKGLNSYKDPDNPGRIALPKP
Sequence,E-score
CGAACATA,-0.103
CACCATAC,0.0539
CACCAAGC,0.0103
CTACGCCA,0.0175
CAATCCTC,-0.179
ACTCCCAT,-0.228
CTGCTACC,-0.122
GTTGGCGA,0.106
ACCGAGGA,-0.0997
CCCCGAGA,-0.0347
AACATCGC,0.194
GGCGCGTA,0.385
CTTTGGGC,0.0142
ACGCACCA,0.129
AATGCTTG,-0.0773
TGGAACCA,-0.0376
ATTGACAA,-0.0433
AGTGATAC,-0.0367
AATTAGCA,-0.0538
GACTATCA,-0.183
CTGCTCTC,-0.175
CACGGTAA,0.211
ATTTAAAG,-0.0551

# Study 2
# Target: RING finger protein unkempt homolog, zinc fingers 1-6, GST-SBP tag (UNK, Homo sapiens, UniProt Q9C0B0, residues 30-357)
# UniProt Q9C0B0, sequence (30-357, looked up): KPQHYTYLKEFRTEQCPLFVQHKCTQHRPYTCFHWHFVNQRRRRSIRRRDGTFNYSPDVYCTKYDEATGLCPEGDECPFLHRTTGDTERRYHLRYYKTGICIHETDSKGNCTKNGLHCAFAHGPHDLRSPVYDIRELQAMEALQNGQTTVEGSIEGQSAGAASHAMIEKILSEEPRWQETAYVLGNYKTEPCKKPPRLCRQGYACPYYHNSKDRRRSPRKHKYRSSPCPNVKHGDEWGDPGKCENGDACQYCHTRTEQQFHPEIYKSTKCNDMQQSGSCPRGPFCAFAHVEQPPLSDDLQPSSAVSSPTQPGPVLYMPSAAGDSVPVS
# Technique: RNA Bind-n-Seq
# Molecule type: RNA
# Medium: in vitro
# Tested at: not given
# Setting: RNA with constant flanks, ends assumed
# Baseline: input RNA pool
# Reading: higher = stronger binding
# Shared flanks, not repeated: GGGAGUUCUACAGUCCGACGAUC … CAACAGAGGAUUGAGCAUCA
Sequence,bound/input enrichment [ratio]
UUUCGCCUGGCGCUGGGCAGCUUCGUGGAAGAGUACAACAACAAGGUUCAGCUUGUUGGUUCCGAUGAGGAGAGUUCAGAGUUUAUUUGCCGAAACACCUUUGACCACCCGUACCCUACC,0.131
GAAGUUCCCCAUUGUCACUGAGAACCACCAAAUUUGACUUUCACAUUUGGUCUCAGAAUUCCGGUUCCUGCCCUGUUGUUUUUCUUUCUUUUUCUUUUUUUUUUUUCUCCCCUCCCCUUU,1.86
UGAGAAUAAUCCUUUUUUUUUCACUAAUGGCAUUGAUGACAUGUUUGAAUCCUGUGUGUUGCAUUCCGAAAAGUAUUCUGAUGACUGUUAUAAACAGUGUGGUGUGAGGCCAUGGACUUC,0.402
UACUUACCUCUUGCAAAAAAAAGAAAAAAGAAAAAAGUUCAUUUAUUCAUUCUGUUUCUAUACCGCAAAACUGAAUGUCAAAAGUACCUUCUGUCCACACACACAAAAUCUGCAUGUAUU,0.405
UACUCGCCCACCUCUCCCAGCUACUCGCCCACCUCUCCCAGCUACUCACCCACUUCCCCCCGCUACUCGCCCACUUCCCCUAGCUACUCGCCAACGUCUCCCAGCUACUCACCGACAUCU,0.867
CAACUUGGGGAAGAUAUCCGACGAAUUCCCAUUCAUAAUGAAGACAUUACUUACGAUGAAUCCGUGCUAAUGAUGCAGCGAGUAUUCAGAGGAAAGCUUCUGAGUAAUGAUGAAGUUACA,0.104
AUGGAUCCUCCAUCAAAGAAUUGUCUUUCUUUUAAUGUCAUUAGUCACCAAGGUUGCAUAAUCCGCAACCUUGUAGUAGCCUGUAGCACAGUGGGAUCUGCAUAUCUUCCGUCUAGUUAC,2.11
UCAGAGUGGGGUUUUUCUCAAUUUCCUUGGAACUGAUUAAAAAGAAAUACAACAUCAUCAACCGAUUACAUUAUUCCCUGUGCGGGAUCCAGUUCAAUACGAUGCAUGAGACAUGCUGCA,0.215

# Study 3
# Target: Sal-like protein 4, full length isoform A (SALL4, Homo sapiens, UniProt Q9UJQ4, residues 1-1053)
# UniProt Q9UJQ4, sequence (whole entry, looked up): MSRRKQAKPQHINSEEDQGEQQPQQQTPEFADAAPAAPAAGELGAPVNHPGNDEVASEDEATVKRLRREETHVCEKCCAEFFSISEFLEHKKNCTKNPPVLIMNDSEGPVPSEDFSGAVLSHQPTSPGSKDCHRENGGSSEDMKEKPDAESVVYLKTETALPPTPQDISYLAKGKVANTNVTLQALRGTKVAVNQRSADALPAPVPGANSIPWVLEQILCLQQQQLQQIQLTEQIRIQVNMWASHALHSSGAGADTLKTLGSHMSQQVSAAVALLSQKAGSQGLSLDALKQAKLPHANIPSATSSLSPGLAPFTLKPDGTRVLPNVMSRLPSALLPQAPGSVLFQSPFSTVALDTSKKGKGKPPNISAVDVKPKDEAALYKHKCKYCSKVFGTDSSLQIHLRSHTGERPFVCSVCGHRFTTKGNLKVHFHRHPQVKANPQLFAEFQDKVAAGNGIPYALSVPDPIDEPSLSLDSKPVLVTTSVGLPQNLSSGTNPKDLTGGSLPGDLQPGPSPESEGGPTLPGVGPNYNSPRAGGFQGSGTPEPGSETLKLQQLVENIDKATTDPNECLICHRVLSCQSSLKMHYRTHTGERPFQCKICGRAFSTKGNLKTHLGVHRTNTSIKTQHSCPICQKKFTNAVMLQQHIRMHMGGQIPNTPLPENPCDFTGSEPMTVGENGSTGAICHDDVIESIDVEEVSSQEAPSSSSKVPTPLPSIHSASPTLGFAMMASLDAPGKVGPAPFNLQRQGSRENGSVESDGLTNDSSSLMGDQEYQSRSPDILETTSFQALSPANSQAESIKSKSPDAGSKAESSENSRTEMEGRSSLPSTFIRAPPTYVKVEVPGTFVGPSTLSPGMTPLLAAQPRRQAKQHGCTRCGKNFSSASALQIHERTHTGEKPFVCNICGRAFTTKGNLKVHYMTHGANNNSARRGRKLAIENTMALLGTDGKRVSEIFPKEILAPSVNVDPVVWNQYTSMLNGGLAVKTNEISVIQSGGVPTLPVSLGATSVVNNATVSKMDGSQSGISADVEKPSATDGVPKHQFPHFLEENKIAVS
# Technique: universal PBM
# Molecule type: double-stranded DNA, one strand shown
# Medium: in vitro
# Tested at: 600 nM
# Setting: 8-mer, flanks averaged, mean of replicates
# Reading: higher = stronger binding
Sequence,E-score
CCGTGACA,-0.0321
CGCCCGCC,-0.362
AAAGTCAA,0.0882
AAAGTGTT,0.165
AAGGCCTT,-0.219
ATTAGTTG,0.263
GGCCTAAA,-0.142
GTGGTGGA,-0.0828
AGGAGACC,-0.267
TCGTGCCA,-0.165
CCGCCGAG,-0.369
GGCTTTGA,-0.15
CAGGGCCC,-0.403
ACGAGGAG,-0.0859
AAAGAAAA,0.263
GCCCTGGA,-0.338
CACCCCGA,-0.121
AATCCAAA,0.26
GATCAGGC,-0.179
AACGCGCC,-0.204
ACGTTACA,0.178
GCTAGCAC,-0.227
AGTAAAAG,0.216
AACTGATC,-0.115
GGGCAGTA,-0.239

# Study 4
# Target: Centromere-binding protein 1, full length, His-tagged (CBF1, Saccharomyces cerevisiae, UniProt P17106, residues 1-351)
# UniProt P17106, sequence (whole entry, looked up): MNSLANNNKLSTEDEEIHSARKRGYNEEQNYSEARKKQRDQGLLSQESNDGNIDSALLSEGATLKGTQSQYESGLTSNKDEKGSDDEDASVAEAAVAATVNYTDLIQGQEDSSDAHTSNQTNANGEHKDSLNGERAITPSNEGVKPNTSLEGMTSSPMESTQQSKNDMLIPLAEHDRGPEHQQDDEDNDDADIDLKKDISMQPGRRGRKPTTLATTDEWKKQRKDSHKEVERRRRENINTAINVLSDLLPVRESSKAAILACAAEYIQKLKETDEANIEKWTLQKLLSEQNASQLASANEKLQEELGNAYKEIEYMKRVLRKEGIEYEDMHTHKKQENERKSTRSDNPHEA
# Technique: competition protein-binding microarray
# Molecule type: double-stranded DNA, one strand shown
# Medium: in vitro
# Tested at: 2 µM
# Setting: whole 60-bp probe, lowest competitor level
# Together with: Pho4 competitor, 0.05 µM
# Reading: higher = stronger binding
# Shared flanks, not repeated: … GTCTTGATTCGCTTGACGCTGCTG
Sequence,fluorescence intensity [a.u.]
TTCCGTCTTGGGAGTCAGGTGGAAGTAACCTGCGGG,144
TAGGTCCAAAACTTGCGCGTGGAAGACGCTGGCCAT,66.3
TTTTTGCAGATCCCAATATTTCTACAGCCTTTGGGA,74.4
CAATCTCTTGAAGGCCATGTGTAGTGCAACCGGCTT,81.2
AAATTACTAAGTTTTCACGTGCGTTACCCCGTATGA,980
ATGGCAACGAGGTCGCACACGCCAGACACCCAGACC,80
CTTTCCCGATCTTGTGATGTGGGTGTAGCACATTTG,111
CGGGGTTAAGTTTTTCACGTGTGTTGCTTGCAGCAG,594
TTTTAAGGGTTTCGCCATGTGGCATGCCACCGGCAA,72.9
CCTATTTTTCTTTTTTACGTGCTAAGGACGAAAAGT,90.4
CCTATTATTGTTTGTCACGATGTCTTGGCTCAAGCT,274
GTCTTGTCTCATTGCTTAGTGGGTGTCCCCACTTCA,61
AAATTACTAAGTTGCGAGGTGGGTGACGCCGTATGA,60.5
AACTGTTTCAGAACAAACGTGGTCGTCCCAAGAAGT,93.2
GACAGATGTGGAGTCAGCGTGGGTAGTGGGGTAACA,79.7
AAGCATCCTTGTTTGCACGGGATGCCCTGCACAGTA,134
CTATCCCTTTCTTTGCACGTGATGGTAAGAATCGTA,5990
CTTTCCCGATCTTGCGTAGTGGGTGTAGCACATTTG,89
TCCGATGGTACTCATGTAGCTGCCTCATACGAGACC,60.5

# For quick reference, copied from above (study 3):
Sequence,E-score
AAAGAAAA,0.263
GCCCTGGA,-0.338
CACCCCGA,-0.121
AATCCAAA,0.26
GATCAGGC,-0.179
AACGCGCC,-0.204
